Measured values collected from several papers.
Each numbered part is a random draw from the data of one study; scales do not carry over between parts.
Sequence of UniProt Q12852 (whole entry, looked up): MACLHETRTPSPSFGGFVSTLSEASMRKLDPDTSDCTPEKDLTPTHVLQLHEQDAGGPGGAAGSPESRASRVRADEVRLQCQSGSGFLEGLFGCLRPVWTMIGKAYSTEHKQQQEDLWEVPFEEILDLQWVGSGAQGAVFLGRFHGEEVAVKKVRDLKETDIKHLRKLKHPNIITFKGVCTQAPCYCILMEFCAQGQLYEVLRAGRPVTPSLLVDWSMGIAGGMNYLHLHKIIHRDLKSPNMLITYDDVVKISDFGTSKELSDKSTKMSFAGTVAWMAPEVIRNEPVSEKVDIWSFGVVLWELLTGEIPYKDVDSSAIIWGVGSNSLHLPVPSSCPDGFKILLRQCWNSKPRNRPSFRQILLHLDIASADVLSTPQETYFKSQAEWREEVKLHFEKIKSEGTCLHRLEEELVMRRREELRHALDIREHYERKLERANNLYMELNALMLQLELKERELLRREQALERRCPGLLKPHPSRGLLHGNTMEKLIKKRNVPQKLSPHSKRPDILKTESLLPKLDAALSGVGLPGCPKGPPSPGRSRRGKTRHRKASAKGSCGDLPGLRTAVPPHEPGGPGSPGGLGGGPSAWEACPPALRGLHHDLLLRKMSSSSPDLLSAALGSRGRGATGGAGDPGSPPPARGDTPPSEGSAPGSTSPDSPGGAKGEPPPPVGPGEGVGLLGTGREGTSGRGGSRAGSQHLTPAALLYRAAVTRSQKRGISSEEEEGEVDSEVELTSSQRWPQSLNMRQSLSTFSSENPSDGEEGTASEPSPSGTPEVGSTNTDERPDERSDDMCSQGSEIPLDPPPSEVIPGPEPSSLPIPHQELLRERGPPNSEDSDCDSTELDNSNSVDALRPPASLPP
Sequence of UniProt Q8TBX8 (whole entry, looked up): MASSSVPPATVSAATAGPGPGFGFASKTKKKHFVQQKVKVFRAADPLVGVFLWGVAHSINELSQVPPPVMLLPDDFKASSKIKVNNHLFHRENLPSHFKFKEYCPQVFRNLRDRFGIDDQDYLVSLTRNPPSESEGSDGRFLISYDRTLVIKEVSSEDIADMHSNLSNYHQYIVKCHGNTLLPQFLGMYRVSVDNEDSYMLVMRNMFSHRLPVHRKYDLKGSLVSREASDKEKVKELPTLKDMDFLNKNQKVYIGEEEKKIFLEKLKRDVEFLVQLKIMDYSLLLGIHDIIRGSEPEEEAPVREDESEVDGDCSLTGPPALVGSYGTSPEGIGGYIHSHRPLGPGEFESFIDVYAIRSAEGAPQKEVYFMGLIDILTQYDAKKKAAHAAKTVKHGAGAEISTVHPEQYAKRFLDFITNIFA
Sequence of UniProt O94804 (whole entry, looked up): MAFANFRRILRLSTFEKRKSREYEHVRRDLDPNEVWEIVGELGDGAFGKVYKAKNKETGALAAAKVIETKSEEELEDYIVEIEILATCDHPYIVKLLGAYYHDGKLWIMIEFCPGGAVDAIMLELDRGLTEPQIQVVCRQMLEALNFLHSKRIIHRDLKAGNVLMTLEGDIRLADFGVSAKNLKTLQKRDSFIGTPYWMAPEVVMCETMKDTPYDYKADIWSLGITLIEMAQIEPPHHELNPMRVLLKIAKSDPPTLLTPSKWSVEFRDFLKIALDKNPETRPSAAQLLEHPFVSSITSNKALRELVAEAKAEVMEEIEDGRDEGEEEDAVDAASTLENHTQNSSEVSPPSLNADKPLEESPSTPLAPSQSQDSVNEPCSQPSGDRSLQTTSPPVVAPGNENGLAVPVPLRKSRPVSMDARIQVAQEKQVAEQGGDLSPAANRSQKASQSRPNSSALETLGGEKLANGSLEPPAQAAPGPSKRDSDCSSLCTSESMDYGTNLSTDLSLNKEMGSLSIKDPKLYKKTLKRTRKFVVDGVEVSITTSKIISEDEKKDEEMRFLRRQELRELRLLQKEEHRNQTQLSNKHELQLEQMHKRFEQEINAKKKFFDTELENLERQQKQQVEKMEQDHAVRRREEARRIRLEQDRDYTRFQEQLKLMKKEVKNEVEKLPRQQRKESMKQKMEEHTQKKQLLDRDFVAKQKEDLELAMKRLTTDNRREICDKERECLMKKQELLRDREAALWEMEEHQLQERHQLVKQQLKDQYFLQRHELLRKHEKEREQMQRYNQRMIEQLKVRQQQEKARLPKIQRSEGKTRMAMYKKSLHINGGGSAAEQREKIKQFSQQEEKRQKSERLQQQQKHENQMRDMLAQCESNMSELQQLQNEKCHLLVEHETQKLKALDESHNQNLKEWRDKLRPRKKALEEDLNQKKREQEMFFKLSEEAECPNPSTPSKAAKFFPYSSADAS
Sequence of UniProt Q12866 (whole entry, looked up): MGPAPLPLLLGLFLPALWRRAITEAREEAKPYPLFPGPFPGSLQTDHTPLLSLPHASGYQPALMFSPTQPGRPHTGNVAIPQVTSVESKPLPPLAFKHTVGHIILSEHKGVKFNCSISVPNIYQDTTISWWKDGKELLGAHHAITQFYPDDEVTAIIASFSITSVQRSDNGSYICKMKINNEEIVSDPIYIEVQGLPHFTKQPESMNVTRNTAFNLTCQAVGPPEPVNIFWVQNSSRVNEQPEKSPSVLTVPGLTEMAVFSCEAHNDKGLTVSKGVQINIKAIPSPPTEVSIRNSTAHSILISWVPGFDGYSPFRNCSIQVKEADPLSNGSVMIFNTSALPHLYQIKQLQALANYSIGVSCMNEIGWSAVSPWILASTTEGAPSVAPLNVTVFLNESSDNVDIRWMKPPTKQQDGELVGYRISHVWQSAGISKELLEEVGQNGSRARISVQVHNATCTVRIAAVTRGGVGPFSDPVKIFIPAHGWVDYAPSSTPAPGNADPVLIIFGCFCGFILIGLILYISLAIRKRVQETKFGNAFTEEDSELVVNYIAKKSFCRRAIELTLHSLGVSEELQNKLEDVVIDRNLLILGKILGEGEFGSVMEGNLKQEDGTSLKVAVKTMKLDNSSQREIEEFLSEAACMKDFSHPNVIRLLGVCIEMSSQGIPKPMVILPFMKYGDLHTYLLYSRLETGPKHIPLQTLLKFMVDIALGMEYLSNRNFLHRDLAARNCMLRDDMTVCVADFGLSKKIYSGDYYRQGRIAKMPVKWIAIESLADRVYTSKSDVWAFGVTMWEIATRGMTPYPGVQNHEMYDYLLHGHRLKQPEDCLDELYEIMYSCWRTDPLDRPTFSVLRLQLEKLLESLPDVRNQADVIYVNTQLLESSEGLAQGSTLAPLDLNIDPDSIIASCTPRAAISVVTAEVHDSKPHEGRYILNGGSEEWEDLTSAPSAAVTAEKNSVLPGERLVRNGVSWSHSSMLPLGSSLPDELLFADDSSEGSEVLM
Sequence of UniProt Q8TF76 (whole entry, looked up): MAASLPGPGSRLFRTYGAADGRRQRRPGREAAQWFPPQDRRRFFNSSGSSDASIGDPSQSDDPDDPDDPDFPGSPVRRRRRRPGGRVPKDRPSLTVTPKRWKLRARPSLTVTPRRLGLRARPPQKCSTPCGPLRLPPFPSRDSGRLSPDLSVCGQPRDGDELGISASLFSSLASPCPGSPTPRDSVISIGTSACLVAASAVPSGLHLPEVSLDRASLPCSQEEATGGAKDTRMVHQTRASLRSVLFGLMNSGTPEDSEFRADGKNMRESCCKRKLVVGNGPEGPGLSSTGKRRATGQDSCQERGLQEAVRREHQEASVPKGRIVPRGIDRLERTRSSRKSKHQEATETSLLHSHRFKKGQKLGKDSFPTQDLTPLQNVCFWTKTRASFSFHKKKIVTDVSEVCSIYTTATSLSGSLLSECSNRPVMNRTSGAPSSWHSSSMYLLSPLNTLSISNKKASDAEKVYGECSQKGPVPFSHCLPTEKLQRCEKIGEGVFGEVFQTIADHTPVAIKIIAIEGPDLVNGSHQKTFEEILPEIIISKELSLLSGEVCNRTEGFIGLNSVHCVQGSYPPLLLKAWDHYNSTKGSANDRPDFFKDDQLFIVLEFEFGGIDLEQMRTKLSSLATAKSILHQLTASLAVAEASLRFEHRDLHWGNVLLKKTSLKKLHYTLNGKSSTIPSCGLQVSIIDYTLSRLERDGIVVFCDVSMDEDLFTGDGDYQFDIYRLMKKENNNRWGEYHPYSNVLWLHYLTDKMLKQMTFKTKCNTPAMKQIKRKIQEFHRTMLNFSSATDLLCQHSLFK
Sequence of UniProt Q9Y2H1 (whole entry, looked up): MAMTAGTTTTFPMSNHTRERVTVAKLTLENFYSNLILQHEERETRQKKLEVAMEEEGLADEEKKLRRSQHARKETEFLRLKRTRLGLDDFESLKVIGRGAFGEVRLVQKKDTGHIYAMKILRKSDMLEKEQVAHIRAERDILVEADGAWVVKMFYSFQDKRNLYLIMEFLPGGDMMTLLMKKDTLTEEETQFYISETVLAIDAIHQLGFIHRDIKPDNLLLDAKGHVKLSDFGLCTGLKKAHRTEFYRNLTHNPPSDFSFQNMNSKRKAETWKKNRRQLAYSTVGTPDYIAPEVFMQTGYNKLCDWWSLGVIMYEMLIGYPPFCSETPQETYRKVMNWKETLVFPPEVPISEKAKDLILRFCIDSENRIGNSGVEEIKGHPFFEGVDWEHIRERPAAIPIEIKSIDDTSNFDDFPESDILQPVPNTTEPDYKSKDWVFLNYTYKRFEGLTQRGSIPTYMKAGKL

Block 1 — method: competition with immobilised ligand; tested at: 1 µM; quantity: remaining binding
SMILES: CO[C@@H](C)c1c(Nc2ccc([C@H](N(C)C(=O)C3CCS(=O)(=O)CC3)C(F)(F)F)cc2)cnc2cc(Cl)nn12
STK38L (Homo sapiens, UniProt Q9Y2H1); cell-free assay: 75%
PIP4K2C (Homo sapiens, UniProt Q8TBX8); cell-free assay: 91%
PTK2 (Homo sapiens, UniProt Q05397); cell-free assay: 85%
Non-receptor tyrosine-protein kinase TYK2, JH2 (TYK2, Homo sapiens, UniProt P29597); cell-free assay: 100%
DSTYK (Homo sapiens, UniProt Q6XUX3); cell-free assay: 100%
MERTK (Homo sapiens, UniProt Q12866); cell-free assay: 87%
MAP3K12 (Homo sapiens, UniProt Q12852); cell-free assay: 100%
HIPK4 (Homo sapiens, UniProt Q8NE63); cell-free assay: 72%
STK10 (Homo sapiens, UniProt O94804); cell-free assay: 100%
Tyrosine-protein kinase JAK3, JH1 (JAK3, Homo sapiens, UniProt P52333); cell-free assay: 99%
HASPIN (Homo sapiens, UniProt Q8TF76); cell-free assay: 100%
LATS2 (Homo sapiens, UniProt Q9NRM7); cell-free assay: 100%
Myosin-IIIb (MYO3B, Homo sapiens, UniProt Q8WXR4); binding: 82%

Block 2 — cell line: A-375; tested at: 100 µM; time: 36 h; quantity: viability
CC(C)(C)C(=O)C(Oc1ccc(Cl)cc1)n1ccnc1 (centres unmarked): 86%
COC(=O)C1=CO[C@@H](O[C@@H]2O[C@H](CO)[C@@H](O)[C@H](O)[C@H]2O)[C@@H]2[C@@H](C)[C@@H](O)C[C@H]12: 101%
CCN(CC)CCOC(=O)C(c1ccccc1)c1ccccc1: 53.3%
Oc1cc(O)cc(/C=C/c2ccc(O)c(O)c2)c1: 59.5%
Clc1ccc(CCC(Cn2ccnc2)Sc2c(Cl)cccc2Cl)cc1 (centres unmarked): -0.154%
CCOC(=O)c1ccc(C#Cc2ccc3c(c2)C(C)(C)CCS3)nc1: 64%
Cc1cccn2c(=O)c(-c3nnn[nH]3)cnc12: 99.9%

Block 3 — read-out: enzyme activity; action: inhibitor; tested at: 0.5 µM; baseline: control; quantity: remaining activity
Target: Dual specificity protein kinase CLK2 (CLK2, Homo sapiens, UniProt P49760)
Sequence of UniProt P49760 (whole entry, looked up): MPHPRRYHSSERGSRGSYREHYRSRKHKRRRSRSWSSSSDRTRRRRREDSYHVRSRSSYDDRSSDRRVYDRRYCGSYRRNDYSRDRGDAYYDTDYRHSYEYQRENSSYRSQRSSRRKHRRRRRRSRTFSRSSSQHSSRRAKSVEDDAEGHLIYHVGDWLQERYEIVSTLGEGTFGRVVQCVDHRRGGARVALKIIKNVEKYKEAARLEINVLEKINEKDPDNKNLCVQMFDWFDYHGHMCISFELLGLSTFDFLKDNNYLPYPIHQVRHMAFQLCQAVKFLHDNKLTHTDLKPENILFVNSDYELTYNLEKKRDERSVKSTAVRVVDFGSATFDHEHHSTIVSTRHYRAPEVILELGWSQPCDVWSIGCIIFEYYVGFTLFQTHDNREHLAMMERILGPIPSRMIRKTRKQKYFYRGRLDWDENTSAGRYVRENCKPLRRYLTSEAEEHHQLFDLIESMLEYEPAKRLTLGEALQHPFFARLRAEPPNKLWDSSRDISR
Ic1cccc(CSc2nnc(-c3ccncc3)o2)c1: 104%
COc1cc2ncnc(Nc3ccc(O)c(Br)c3)c2cc1OC: 96.7%
Cn1nc2c3c(cccc31)C(=O)c1ccccc1-2: 94.5%
N#C/C(=C\c1ccc(O)c(O)c1)C(=O)NCc1ccccc1: 110%
CCN(CC)C(=O)c1ccc(Nc2nc(OCC3CCCCC3)c3[nH]cnc3n2)cc1: 40.6%
O=C1c2ccccc2-c2n[nH]c3cccc1c23: 95.4%
N#Cc1c(NC(=O)c2cccc3ccccc23)sc2c1CCCC2: 101%
c1ccc(-c2[nH]ncc2-c2ccnc3ccccc23)nc1: 99.4%

Further values, each from its own experiment
CCC[C@H]1NC(=O)CSC[C@@H](C(=O)OCC)N(C)C(=O)[C@H](CC(C)C)NC(=O)[C@H](C)N(C)C(=O)[C@@H](CC(C)C)NC(=O)[C@H](C)N(C)C(=O)[C@H]2CCCN2C(=O)[C@H](CC(C)C)NC(=O)CN(C)C1=O
logD (hydrocarbon/water): 0.18
